# Measurements pooled from the literature.
# Numbered parts are unrelated; each lists some results of a single study. Several values in a cell are separate wells, animals, samples, runs or records.

# Block 1 — observed: enzyme activity; action: inhibitor; concentration: 0.5 µM; baseline: control
# Target: G protein-coupled receptor kinase 5 (GRK5, Homo sapiens, UniProt P34947)
# Sequence of UniProt P34947 (whole entry, looked up): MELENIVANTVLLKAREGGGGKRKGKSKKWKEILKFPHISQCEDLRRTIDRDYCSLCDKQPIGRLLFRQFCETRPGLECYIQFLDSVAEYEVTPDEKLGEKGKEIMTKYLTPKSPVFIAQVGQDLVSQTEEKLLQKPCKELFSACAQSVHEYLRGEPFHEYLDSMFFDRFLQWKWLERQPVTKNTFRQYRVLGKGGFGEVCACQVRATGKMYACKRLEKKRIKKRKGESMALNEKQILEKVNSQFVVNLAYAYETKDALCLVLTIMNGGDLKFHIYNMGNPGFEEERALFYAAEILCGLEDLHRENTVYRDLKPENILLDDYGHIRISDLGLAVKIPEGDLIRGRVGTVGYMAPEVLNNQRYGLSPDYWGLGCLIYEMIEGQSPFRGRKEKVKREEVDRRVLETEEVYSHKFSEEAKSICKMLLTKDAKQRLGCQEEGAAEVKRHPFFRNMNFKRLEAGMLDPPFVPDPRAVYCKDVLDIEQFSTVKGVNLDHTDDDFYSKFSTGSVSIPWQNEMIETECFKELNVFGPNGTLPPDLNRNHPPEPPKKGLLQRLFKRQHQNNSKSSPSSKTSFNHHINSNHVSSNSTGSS
Structure (SMILES),remaining activity
CN(C)c1ccc(C=C2C(=O)Nc3ccccc32)cc1,104%
O=c1c2ccccc2[nH]c(=S)n1CCN1CCC(=C(c2ccc(F)cc2)c2ccc(F)cc2)CC1,103%
Nc1[nH]nc2nc3ccccc3nc12,101%
Cc1nc(-c2ccccc2)c(-c2ccncc2)o1,104%
Oc1ccc(-c2nc(-c3ccncc3)c(-c3ccc(F)cc3)[nH]2)cc1,104%
COc1cc2nccc(Oc3ccc(NC(=S)NC(=O)c4ccccc4C)cc3)c2cc1OC,98.8%
O=C1NC(=O)C(c2cn(CCCO)c3ncccc23)=C1c1cnccn1,116%
CC(C)[C@H](CO)Nc1nc(Nc2cc(N)cc(Cl)c2)c2ncn(C(C)C)c2n1,101%
O=C(Nc1cccc(Nc2cc(Nc3cccc(C(F)(F)F)c3)ncn2)c1)C1CC1,109%
COc1ccc(C(=O)Nc2sc3c(c2C(N)=O)CCCC3)cc1OC,104%
O=C1NC(=O)C(c2cn(CCCn3ccnc3)c3ccccc23)=C1Nc1ccccc1,90.9%
NCCNc1ncc(C(N)=O)c(Nc2cccc(C(F)(F)F)c2)n1,92.1%
CO[C@H]1C[C@@H]2CC[C@@H](C)[C@@](O)(O2)C(=O)C(=O)N2CCCC[C@H]2C(=O)O[C@H]([C@H](C)C[C@@H]2CC[C@@H](O)[C@H](OC)C2)CC(=O)[C@H](C)/C=C(\C)[C@@H](O)[C@@H](OC)C(=O)[C@H](C)C[C@H](C)/C=C/C=C/C=C/1C,98.7%
COc1ccc(OC)c2c(=S)c3ccccc3[nH]c12,108%
Cc1ccc(NC(=O)c2ccc(CN3CCN(C)CC3)cc2)cc1Nc1nc(-c2cccnc2)cs1,106%

# Block 2 — observed: binding; method: radioligand binding; concentration: 10 µM
# Target: D(1A) dopamine receptor (DRD1, Homo sapiens, UniProt P21728)
# Sequence of UniProt P21728 (whole entry, looked up): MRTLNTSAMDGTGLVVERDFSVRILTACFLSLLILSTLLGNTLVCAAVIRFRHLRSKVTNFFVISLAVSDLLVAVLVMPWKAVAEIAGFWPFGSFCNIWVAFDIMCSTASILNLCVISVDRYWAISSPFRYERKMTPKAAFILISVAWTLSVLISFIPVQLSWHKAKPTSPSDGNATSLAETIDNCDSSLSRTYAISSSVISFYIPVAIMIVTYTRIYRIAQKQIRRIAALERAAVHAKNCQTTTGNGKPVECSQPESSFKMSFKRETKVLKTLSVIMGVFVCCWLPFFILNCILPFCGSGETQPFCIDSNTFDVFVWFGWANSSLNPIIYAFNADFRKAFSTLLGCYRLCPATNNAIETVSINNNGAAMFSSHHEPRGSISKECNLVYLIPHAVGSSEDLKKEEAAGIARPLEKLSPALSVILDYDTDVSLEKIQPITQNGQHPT
Structure (SMILES),inhibition
C[C@H](NC(=O)c1cnc2n1[C@](C)(Cc1ccc(C#N)cc1)C(=O)N2c1cc(Cl)c(F)c(Cl)c1)C(=O)NC1(c2ccccn2)CC1,1.26%
Cc1cc(-n2nc(Cc3cc(F)cc(C(F)(F)F)c3)nc2C)ccc1C(N)=O,-4.72%
O=C1c2ccc(Nc3ccc(F)cc3F)cc2CCc2ccc(OC[C@H](O)CO)cc21,5.83%
O=C(Nc1ccc(-n2nc(-c3cccnc3)cc2C(F)(F)F)cn1)c1ccc(-c2ccccc2)c(F)c1,4.32%

# Block 3 — host: human; sample: plasma; route: oral
# SMILES: COc1ccc(-c2c(Nc3ccccn3)[nH]c3c(C4=CCCCC4)c(-c4ccccc4)nn3c2=O)cc1
test,conditions,Cmax
LC-MS/MS non-compartmental,"200 mg, day -3 of cycle 0, single dose, geometric mean",1550 ng/mL
LC-MS/MS non-compartmental,"200 mg twice daily, cycle 1",12100 ng/mL
,200 mg twice daily,13800 ng/mL and 15000 ng/mL
LC-MS/MS non-compartmental,"50 mg once daily, cycle 1",1630 ng/mL
,"50 mg once daily, multiple doses, patients",1710 ng/mL
LC-MS/MS,50 mg once daily,1730 ng/mL and 1780 ng/mL

# Block 4 — method: resazurin
# Compound: c1ccc(Oc2ccc(Nc3c4c(nc5ccccc35)CCC4)cc2)cc1
cell line,conditions,cytotoxicity
HepG2,"0.32 µM, 48 h",7% and 3%
J774.1,"0.0066 µM, 64 h",-3%
HepG2,"0.0332 µM, 48 h",3% and 7%
J774.1,"6.66 µM, 64 h",-5% and -4%
HepG2,"0.00332 µM, 48 h",1% and -2%

# For quick reference, copied from above (block 1):
Structure (SMILES),remaining activity
Nc1[nH]nc2nc3ccccc3nc12,101%
Cc1nc(-c2ccccc2)c(-c2ccncc2)o1,104%
Oc1ccc(-c2nc(-c3ccncc3)c(-c3ccc(F)cc3)[nH]2)cc1,104%
COc1cc2nccc(Oc3ccc(NC(=S)NC(=O)c4ccccc4C)cc3)c2cc1OC,98.8%
O=C1NC(=O)C(c2cn(CCCO)c3ncccc23)=C1c1cnccn1,116%
